Measured values pooled from the literature.
Each numbered part is a random draw from the data of one study; scales do not carry over between parts. Changes are numbered by the printed parent chain.

Study 1
Target: Fragile X messenger ribonucleoprotein 1, C-terminal low-complexity region (Fmr1, Mus musculus, UniProt P35922)
Technique: RNA Bind-n-Seq
Molecule type: RNA
Medium: in vitro
Tested at: 200 nM
Setting: whole 134-nt RNA, ends assumed
Together with: 150 mM KCl
Baseline: input library
Reading: higher = stronger binding
With `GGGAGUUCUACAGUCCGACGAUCUCAAGUCCUGUGCUACACAUCGUAUGUACCGAAUCGGGUUGGUUGGGGUUGGGGAAAGUAUUAUGUUACGCCGUUCGGAUCUGCACUUCCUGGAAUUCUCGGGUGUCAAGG` the log2 enrichment was 1.05.
For `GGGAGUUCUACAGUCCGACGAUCUGGCCCUGGUGGCAUGAGGGGAGGAAGAGGUGGCCUCAUGGAUCGUGGUGGUCCCGGUGGAAUGUUCAGAGGUGGCCGUGGUGGAGACAGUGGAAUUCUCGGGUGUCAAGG`, the log2 enrichment was 0.259.
The log2 enrichment of `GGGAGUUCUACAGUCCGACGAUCCCUGUGCUACACAUCGUAUGUACCGAAUCGGCCCCCCCGGGCCCCCCCGGGCCCCCCCGGAAAGUAUUAUGUUACGCCGUUCGGAUCUGCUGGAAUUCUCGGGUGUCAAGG` is reported as -0.171.
For `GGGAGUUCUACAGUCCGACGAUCGCAGGAAGUAAAAACAAAUGGAAAUGCUUCGGAUAGGGGCAGGGGUGGGGGUUGCUAAGGAAAGGGUGGGAUGGGAGUGGGUAAAGAGUUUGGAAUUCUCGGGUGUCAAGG`, the log2 enrichment was 0.674.
`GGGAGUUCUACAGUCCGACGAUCUGGCCCUGGUGGCAUGCGGGCAGGAAGAGGUGGCCUCAUGGAUCGUGGUGGUCCCGGUGGAAUGUUCAGAGGUGGCCGUGGUGGAGACAGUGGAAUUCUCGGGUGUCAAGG` has a log2 enrichment of -0.149.
For `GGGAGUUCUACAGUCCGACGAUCAAGUCCUGUGCUACACAUCGUAUGUACCGAAUCGGUUUUUGGGUUUUUGGUUUUUGGAAAGUAUUAUGUUACGCCGUUCGGAUCUGCACUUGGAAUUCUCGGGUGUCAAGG`, the log2 enrichment was -0.76.
With `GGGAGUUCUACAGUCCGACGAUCGCAGGAAGUAAAAACAAAUGGAAAUGCUUCGGAUAGUGGCAGGGGUGGGGGUUGCUAAGGAAAGGGUGGGAUGGGAGUGGGUAAACAGUUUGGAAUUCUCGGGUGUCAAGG` the log2 enrichment was -0.165.
`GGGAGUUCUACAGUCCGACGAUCUGGCCCUGGUGGCAUGCGGGGAGGAAGAGGUGGCCUCAUGGAUCGUGGUGGUCCCGGUGGAAUGUUCAGAGGUGGCCGUGGUGGAUACAGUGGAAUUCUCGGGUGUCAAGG` gave a log2 enrichment of 0.107.
The log2 enrichment of `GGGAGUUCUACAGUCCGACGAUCGUCCUGUGCUACACAUCGUAUGUACCGAAUCGGGUGGGAAAAAAAGGGUUUUUUUGGGAAAGUAUUAUGUUACGCCGUUCGGAUCUGCACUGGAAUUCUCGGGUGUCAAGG` is reported as 0.136.
`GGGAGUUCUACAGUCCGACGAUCCUCAAGUCCUGUGCUACACAUCGUAUGUACCGAAUCGGAGGAAAAAGGAAAGGAAAGUAUUAUGUUACGCCGUUCGGAUCUGCACUUCCAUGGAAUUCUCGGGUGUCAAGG` gave a log2 enrichment of -0.221.

Study 2
Target: ABI1, truncated, D143A, DHFR fusion (Arabidopsis thaliana)
Technique: DHFR PCA, deep sequencing
Medium: yeast
Setting: methotrexate growth selection, single substitutions
Together with: (+)-ABA 0.0091 µM
Baseline: wild-type fitted maximum
Reading: higher = stronger binding
Starting sequence: PYL1, truncated, DHFR fusion (Arabidopsis thaliana); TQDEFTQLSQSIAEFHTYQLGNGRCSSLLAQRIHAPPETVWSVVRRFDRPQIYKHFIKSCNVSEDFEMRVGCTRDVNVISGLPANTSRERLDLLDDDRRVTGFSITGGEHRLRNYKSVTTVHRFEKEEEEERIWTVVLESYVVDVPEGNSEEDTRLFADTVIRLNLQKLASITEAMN
Under “relative binding score”, `V40H` is recorded as -0.849%.
`V145W` — result for “relative binding score”: -6.53%.
Under “relative binding score”, `A13H` is recorded as 15.7%.
Under “relative binding score”, `I172E` is recorded as -1.66%.
For `E4F`, “relative binding score” read 11.3%.
`D153R` — result for “relative binding score”: -4.36%.
`F103H`: “relative binding score” -0.758%.
`T86V`: “relative binding score” 52.2%.

Study 3
Target: CCNB1, cyclin fold, Cln2 fusion (human)
Technique: yeast growth competition, sequencing
Medium: yeast
Setting: weak parent motif
Baseline: not given
Reading: higher = stronger binding
Starting sequence: CDC6 docking peptide (human); TLKGRRLVFDNQL
`TLKGRRLVFMNQL [D10M]` — result for “normalised enrichment score”: 1.49.
`TLKGRRLQFDNQL [V8Q]`: “normalised enrichment score” -0.49.
For `ALKGRRLVFDNQL [T1A]`, “normalised enrichment score” read 0.404.
`TLKGRRLGFDNQL [V8G]`: “normalised enrichment score” 0.91.
For `TLKGRRPVFDNQL [L7P]`, “normalised enrichment score” read -0.00885.
`TLKGRRLVFDNTL [Q12T]`: “normalised enrichment score” 0.481.
`TLKNRRLVFDNQL [G4N]` — result for “normalised enrichment score”: 0.431.
Under “normalised enrichment score”, `TLKGWRLVFDNQL [R5W]` is recorded as 0.203.
`TEKGRRLVFDNQL [L2E]` — result for “normalised enrichment score”: 0.372.

Single results of other studies
The fold induction of `PhoQ, residues 284 288 289 292 302 303 GANMMA` is reported as 5.75 (PhoP, residues 12 14 15 18 19 LHHSG (Escherichia coli, UniProt P23836); Sort-seq, item: YFP reporter; E. coli; PhoQ-PhoP variant library, together with: 10 µM Mg2+; baseline: high Mg2+ state, higher = stronger signaling).

Repeated from above (study 2):
For `E4F`, “relative binding score” read 11.3%.
`D153R` — result for “relative binding score”: -4.36%.
`F103H`: “relative binding score” -0.758%.
`T86V`: “relative binding score” 52.2%.
